Measurements gathered from unrelated publications.
Each numbered part is a random draw from the data of one study; scales do not carry over between parts. Substitutions count along the parent as printed.
UniProt P93022, sequence (whole entry, looked up): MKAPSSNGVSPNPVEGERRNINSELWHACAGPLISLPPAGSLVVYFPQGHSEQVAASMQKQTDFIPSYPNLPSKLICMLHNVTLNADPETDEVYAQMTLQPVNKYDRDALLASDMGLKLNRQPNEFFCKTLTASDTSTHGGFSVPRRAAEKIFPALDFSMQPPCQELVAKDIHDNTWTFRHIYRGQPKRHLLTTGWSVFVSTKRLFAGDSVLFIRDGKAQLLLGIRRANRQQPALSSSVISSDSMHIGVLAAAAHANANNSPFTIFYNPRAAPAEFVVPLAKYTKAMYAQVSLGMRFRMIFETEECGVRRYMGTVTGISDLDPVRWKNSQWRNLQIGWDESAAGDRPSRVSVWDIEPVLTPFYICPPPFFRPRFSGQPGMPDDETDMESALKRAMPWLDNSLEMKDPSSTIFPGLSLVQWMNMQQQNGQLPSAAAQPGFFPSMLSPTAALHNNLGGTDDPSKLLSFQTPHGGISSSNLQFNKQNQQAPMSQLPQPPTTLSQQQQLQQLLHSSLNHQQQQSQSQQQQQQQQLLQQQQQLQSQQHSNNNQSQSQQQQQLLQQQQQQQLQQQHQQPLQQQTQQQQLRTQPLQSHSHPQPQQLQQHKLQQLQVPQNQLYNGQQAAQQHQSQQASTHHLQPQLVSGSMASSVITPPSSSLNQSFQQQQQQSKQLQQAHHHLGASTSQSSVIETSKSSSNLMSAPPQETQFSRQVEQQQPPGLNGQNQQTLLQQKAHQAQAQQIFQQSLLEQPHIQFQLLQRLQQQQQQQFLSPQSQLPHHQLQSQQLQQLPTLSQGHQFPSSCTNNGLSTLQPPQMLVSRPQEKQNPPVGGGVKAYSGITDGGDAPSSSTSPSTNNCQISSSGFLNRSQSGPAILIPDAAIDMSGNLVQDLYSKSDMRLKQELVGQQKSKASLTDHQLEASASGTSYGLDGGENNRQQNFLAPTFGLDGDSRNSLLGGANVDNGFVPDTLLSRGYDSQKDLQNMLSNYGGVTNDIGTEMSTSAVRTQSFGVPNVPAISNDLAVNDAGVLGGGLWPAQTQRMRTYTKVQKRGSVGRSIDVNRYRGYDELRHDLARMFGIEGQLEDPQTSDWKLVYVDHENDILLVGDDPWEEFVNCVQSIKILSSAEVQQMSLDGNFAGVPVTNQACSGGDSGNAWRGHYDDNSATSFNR
UniProt Q38832, sequence (whole entry, looked up): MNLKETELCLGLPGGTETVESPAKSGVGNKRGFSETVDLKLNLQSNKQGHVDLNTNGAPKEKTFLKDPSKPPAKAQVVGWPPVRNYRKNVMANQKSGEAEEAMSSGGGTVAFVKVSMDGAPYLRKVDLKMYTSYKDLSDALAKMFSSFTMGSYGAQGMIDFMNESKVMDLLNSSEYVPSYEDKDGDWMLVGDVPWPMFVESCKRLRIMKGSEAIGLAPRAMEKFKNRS
UniProt Q8LAL2, sequence (whole entry, looked up): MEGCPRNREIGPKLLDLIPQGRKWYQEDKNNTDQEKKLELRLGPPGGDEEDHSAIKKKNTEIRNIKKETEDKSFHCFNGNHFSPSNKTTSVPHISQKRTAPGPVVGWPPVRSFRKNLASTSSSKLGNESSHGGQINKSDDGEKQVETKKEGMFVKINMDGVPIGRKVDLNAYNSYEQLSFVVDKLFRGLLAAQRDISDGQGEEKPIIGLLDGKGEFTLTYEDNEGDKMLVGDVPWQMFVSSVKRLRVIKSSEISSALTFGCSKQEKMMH
UniProt Q9FGV1, sequence (whole entry, looked up): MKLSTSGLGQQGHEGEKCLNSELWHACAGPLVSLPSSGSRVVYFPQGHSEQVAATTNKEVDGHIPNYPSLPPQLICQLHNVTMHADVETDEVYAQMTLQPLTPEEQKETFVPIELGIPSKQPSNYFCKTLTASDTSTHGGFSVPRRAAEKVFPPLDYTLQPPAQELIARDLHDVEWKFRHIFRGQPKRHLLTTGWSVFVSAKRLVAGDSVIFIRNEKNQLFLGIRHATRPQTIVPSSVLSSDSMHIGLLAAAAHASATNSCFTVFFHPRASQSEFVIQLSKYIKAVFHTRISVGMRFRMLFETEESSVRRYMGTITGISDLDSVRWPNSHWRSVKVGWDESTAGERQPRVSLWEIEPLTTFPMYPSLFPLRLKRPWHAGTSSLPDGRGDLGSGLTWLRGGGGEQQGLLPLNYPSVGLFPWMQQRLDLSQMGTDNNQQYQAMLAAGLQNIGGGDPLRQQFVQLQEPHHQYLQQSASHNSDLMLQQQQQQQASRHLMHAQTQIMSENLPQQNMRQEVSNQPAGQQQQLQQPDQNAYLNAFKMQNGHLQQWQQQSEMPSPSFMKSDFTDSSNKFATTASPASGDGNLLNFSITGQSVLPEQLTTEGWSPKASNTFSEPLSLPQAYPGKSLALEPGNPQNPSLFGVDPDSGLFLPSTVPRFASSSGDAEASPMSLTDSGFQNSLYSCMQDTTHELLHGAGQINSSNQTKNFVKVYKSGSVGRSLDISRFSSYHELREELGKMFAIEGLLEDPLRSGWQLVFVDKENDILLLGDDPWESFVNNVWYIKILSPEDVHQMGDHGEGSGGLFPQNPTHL

Study 1
Target: CCNB1, cyclin fold, Cln2 fusion (human)
Method: yeast growth competition, sequencing
Matrix: yeast
Setting: strong parent motif
Baseline: not given
Direction: higher = stronger binding
Measurement: normalised enrichment score
Parent: MASTL docking peptide (human); PMIAKNLMCELDE
M2A: 2.04
E10Q: 0.861
C9K: 1.9
A4D: 0.191
C9E: 2.06
C9G: 1.25
A4P: 0.815
L7A: 0.0369
K5G: -0.247
I3S: -0.18
D12V: 1.07
N6Q: 0.323
I3N: 0.144

Study 2
Target: ABI1, truncated, D143A, DHFR fusion (Arabidopsis thaliana)
Method: DHFR PCA, deep sequencing
Matrix: yeast
Setting: methotrexate growth selection, single substitutions
Together with: (+)-ABA 58 µM
Baseline: wild-type fitted maximum
Direction: higher = stronger binding
Measurement: relative binding score
Parent: PYL1, truncated, DHFR fusion (Arabidopsis thaliana); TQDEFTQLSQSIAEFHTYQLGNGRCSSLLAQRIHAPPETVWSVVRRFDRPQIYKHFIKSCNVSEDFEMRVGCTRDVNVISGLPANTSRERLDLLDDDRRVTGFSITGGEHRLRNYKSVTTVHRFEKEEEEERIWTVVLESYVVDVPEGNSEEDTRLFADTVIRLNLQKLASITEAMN
E130W: 72.1%
A35C: 80.8%
C60P: -3.05%
N149Q: 44.6%
E64P: 90.9%
T6C: 92.4%
L169C: 1.97%
V100E: -2.52%
A158P: -4.12%
E131C: 94%
L93V: 96.1%
R99L: 97.4%
Q7K: 86.4%
M68C: 79.9%
R98L: 84.5%

Study 3
Target: Phosphate system positive regulatory protein PHO4, full length, GST-tagged (PHO4, Saccharomyces cerevisiae, UniProt P07270, residues 1-312)
Method: competition protein-binding microarray
Molecule type: double-stranded DNA, one strand shown
Matrix: in vitro
Tested at: 2 µM
Setting: whole 60-bp probe, lowest competitor level
Together with: Cbf1 competitor, 0.05 µM
Direction: higher = stronger binding
Measurement: fluorescence intensity
Shared flanks, not repeated: … GTCTTGATTCGCTTGACGCTGCTG
Target sequence (chain): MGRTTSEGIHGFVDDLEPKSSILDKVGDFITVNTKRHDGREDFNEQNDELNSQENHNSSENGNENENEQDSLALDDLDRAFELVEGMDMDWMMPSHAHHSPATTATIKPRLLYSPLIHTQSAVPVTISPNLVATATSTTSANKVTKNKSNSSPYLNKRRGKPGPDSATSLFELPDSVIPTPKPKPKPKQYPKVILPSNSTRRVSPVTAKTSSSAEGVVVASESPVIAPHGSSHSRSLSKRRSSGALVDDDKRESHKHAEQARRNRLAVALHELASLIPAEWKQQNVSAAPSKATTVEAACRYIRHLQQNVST
TGCGCAACAACTTGTCACGGTACTTTATGTCTAGAA: 4300 a.u.
CATACCCAACCTTTTCACGTGAGATAAGATATTTGT: 11700 a.u.
CTAACGAAGGTTTGGCTTGTGGGTGACAAGCCAAGT: 3920 a.u.
AAATTACTAAGTTGGCGAGTGGGTGACGCCGTATGA: 4040 a.u.
GCCCGGTCAAGTACTCACGTTCTGCTGTAGGTGACG: 8600 a.u.
TGGGTATCTGCTTGTCAGGTGCAGGCCCAACTATCT: 4040 a.u.
ACAAGGCTAAGGGCGCACATGTGTGGGACCCGGAGG: 11300 a.u.
AGAAATGTTCTCCTCCACGTGGATTCGTACCGTTGT: 17200 a.u.
ATACTGAAGATTCGAAACGTGTTTCTAAAACCAATA: 13900 a.u.
TGTTTAGAGAGTCTTGCCTTCAGGTTTAATATAGTC: 3000 a.u.
TTTCTTATGAAAATCAGTGTGACAGTAATGAGACTT: 3400 a.u.
TCTCGATCTTCCCATCACGCATAGGGTTTTGGGCTT: 6080 a.u.
TTGCATAGGCAGCATATCGCCCCCAGTAATCATTGG: 3740 a.u.
AGCGTAATCTATACCCACGTAAACCCACTGAGATAA: 5710 a.u.
TGCGCAACAACTTGAAGCGTGGGTGTATGTCTAGAA: 8860 a.u.
ACAGGCTTTTACCATCACCTGAGCAGCAGCAAGAAA: 4060 a.u.
TCTATCCTATTTTAAAACGTGAATATTCCAAGATGA: 9280 a.u.
TGTACCACCTCTTTGAACGTGACAAAGAATGGTTAC: 8810 a.u.
TGCGCAACAACTTTTCACGTGACCTTATGTCTAGAA: 10200 a.u.
ACCGTATTTGCTCCTCACGTGTCCAGTAGGTTTCGG: 15600 a.u.
GTCTTGTCTCATTGTCACTGTACTTTCCCCACTTCA: 4720 a.u.
TTACCCAGCGATCCGCCCGTGAGGTGATGCGCAAAA: 4870 a.u.
GAAAATGGCCCAAGTAGCGTGACAAGTCTCTGGTAA: 4370 a.u.
ATTCATTCAAGCTAGCAAACTTAGATCTCAAAAAAT: 3560 a.u.
CGTTATGTCCCTAACGACGTGCAATAACTTGCGGAA: 5890 a.u.

Study 4
Target: Sal-like protein 4, full length isoform A (SALL4, Homo sapiens, UniProt Q9UJQ4, residues 1-1053)
UniProt Q9UJQ4, sequence (whole entry, looked up): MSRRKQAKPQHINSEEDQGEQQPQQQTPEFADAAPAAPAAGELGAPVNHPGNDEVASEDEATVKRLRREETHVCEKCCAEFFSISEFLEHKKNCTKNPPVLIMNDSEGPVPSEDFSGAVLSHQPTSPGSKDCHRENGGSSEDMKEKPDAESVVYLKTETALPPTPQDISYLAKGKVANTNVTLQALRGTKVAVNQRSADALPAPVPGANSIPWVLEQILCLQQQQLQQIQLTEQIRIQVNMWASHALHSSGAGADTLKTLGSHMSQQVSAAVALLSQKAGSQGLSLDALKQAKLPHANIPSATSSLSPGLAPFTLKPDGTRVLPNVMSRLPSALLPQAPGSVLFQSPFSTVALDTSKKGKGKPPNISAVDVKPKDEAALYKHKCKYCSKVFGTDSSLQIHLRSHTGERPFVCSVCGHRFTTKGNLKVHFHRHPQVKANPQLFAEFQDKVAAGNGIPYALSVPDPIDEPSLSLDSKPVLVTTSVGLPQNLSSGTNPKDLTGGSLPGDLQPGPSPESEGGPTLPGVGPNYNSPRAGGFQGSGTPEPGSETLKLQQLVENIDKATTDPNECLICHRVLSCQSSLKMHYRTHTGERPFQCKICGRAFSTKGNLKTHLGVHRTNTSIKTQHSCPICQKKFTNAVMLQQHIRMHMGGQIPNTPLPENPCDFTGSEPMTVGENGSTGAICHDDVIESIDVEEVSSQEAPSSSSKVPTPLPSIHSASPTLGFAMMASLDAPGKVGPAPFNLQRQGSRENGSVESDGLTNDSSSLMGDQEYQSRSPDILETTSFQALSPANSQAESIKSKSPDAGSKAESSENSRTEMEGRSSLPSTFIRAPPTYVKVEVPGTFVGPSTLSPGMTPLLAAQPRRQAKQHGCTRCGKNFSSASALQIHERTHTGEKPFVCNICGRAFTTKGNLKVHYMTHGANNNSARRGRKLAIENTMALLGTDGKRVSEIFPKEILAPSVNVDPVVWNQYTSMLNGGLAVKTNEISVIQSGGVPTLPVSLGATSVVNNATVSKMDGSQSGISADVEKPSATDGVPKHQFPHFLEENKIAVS
Method: universal PBM
Molecule type: double-stranded DNA, one strand shown
Matrix: in vitro
Tested at: 600 nM
Setting: 8-mer, flanks averaged, mean of replicates
Direction: higher = stronger binding
Measurement: E-score
AGTTGTGG: 0.135
CGCCCGAG: -0.325
CCGGGATC: -0.327
GGTAGATA: 0.163
CTCACGTC: -0.127
GTGTTAAA: 0.184
CAGAGGCC: -0.288
GCCGCGCA: -0.363
TGGAGAAA: 0.00513
ACCCCCAC: -0.259
AGATGCCC: -0.215
GACCAAGA: -0.135
TCCCTCGA: -0.19
CGAACCGA: -0.0995
TATAAAGA: 0.273
CGTTCTCA: 0.0272
ATAACGGA: 0.299
GTGGGAGA: -0.135
CATTGCAA: 0.126
CGCTTACG: -0.169
AATGCGAA: 0.204
TACCCGGA: -0.145
CAGCATAA: 0.251
ACTTCACC: -0.0123
AGACGCAC: -0.0921

Study 5
Molecule: B1 (IAA3)
Method: two-hybrid
Baseline: out of 4 tests
Direction: higher = firmer interaction
Measurement: positive tests
B1: IAA3 (Arabidopsis thaliana, UniProt Q38822); chain MDEFVNLKETELRLGLPGTDNVCEAKERVSCCNNNNKRVLSTDTEKEIESSSRKTETSPPRKAQIVGWPPVRSYRKNNIQSKKNESEHEGQGIYVKVSMDGAPYLRKIDLSCYKGYSELLKALEVMFKFSVGEYFERDGYKGSDFVPTYEDKDGDWMLIGDVPWEMFICTCKRLRIMKGSEAKGLGCGV
ARF7 1030-1164 (Arabidopsis thaliana, UniProt P93022): 4
ARF8 699-811 (Arabidopsis thaliana, UniProt Q9FGV1): 3
IAA17 (Arabidopsis thaliana, UniProt P93830): 4
IAA26 (Arabidopsis thaliana, UniProt Q8LAL2): 1
IAA14 (Arabidopsis thaliana, UniProt Q38832): 4

Study 6
Target: Histone acetyltransferase KAT6A, winged helix 2, GST fusion (KAT6A, Homo sapiens, UniProt Q92794, residues 85-181)
Method: protein binding microarray
Molecule type: double-stranded DNA, one strand shown
Matrix: in vitro
Tested at: not given
Setting: 8-mer, flanks averaged, mean of 2 arrays, mostly near background
Baseline: not given
Direction: higher = stronger binding
Measurement: E-score
Target sequence (chain): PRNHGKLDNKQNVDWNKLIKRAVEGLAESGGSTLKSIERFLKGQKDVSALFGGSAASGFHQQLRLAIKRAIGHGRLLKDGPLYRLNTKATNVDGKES
GTTTTAGA: 0.0491
ACTGGAAT: -0.0751
ATGCTAGG: -0.149
ACAGTGGC: 0.0299
CCCTAAGC: -0.0831
ATCTGGGC: 0.0275
CAATGCAC: -0.0273
CCAGTTTA: -0.0261
GCTAGAGC: 0.0495
GAGCAACA: 0.112
TACTTAGA: -0.075
AGGTACGC: -0.0222
AGCGACCA: 0.0225
AGTTGGAT: -0.0653
ATACCTTC: -0.129
AGTTGATC: -0.0303
TCACTACA: 0.0232
CTGAACCA: 0.0678
GACCTGAA: -0.0319
ATCAGTGC: 0.0663
GACAGAAA: 0.165
ATATATAA: 0.0112

Excerpt of the above (study 4):
CGAACCGA: -0.0995
TATAAAGA: 0.273
CGTTCTCA: 0.0272
ATAACGGA: 0.299
GTGGGAGA: -0.135
CATTGCAA: 0.126
CGCTTACG: -0.169
AATGCGAA: 0.204
TACCCGGA: -0.145
CAGCATAA: 0.251
ACTTCACC: -0.0123
